Experimental data pooled from the literature.
Numbered parts are unrelated; each lists some results of a single study. Substitutions count along the parent as printed.

Sample 1
Target: HLA class I histocompatibility antigen, A alpha chain, allele A*25:01 (Homo sapiens, UniProt P04439)
Effect on: peptide-MHC binding
Molecule type: peptide
Tested at: concentration not given
Molecule	binding
KVSWRWMVY	inactive
FLYPSWSLY	inactive
FHRKKTDAL	inactive
LVGNTLTTC	inactive
LLDLEGHIL	inactive
ETFNTPAMY	active
KSLTTTMQFK	inactive
RMMATKDSF	inactive
SPLPITLKY	inactive
NSESGNSRY	inactive

Sample 2
Target: CCNA1, cyclin fold, Cln2 fusion (human)
Method: yeast growth competition, sequencing
Medium: yeast
Notes: strong parent motif
Reference: not given
Reading: higher = stronger binding
Parent: viral docking peptide; YKVKRRLVFGADD; partner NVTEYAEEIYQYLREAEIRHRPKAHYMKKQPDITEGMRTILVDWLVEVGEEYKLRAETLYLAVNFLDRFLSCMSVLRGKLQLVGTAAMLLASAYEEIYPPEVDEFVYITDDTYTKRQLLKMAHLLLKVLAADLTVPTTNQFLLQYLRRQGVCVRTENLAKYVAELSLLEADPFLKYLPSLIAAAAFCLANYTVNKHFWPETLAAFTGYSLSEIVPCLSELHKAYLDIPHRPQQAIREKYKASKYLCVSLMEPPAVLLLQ
Variant	normalised enrichment score
YKVHRRLVFGADD [K4H]	0.532
YKVKRRLRFGADD [V8R]	0.638
YKVFRRLVFGADD [K4F]	-0.4
YKVKRSLVFGADD [R6S]	1.15
YSVKRRLVFGADD [K2S]	0.573
YKVKCRLVFGADD [R5C]	0.0417
YKFKRRLVFGADD [V3F]	0.784
YKVKRILVFGADD [R6I]	0.29

Sample 3
Target: Interferon regulatory factor 3, full length, phosphomimetic (IRF3, Homo sapiens, UniProt Q14653, residues 1-427, S386D/S396D/S398D/S402D/T404D/S405D)
Chain of UniProt Q14653 (whole entry, unmodified, looked up): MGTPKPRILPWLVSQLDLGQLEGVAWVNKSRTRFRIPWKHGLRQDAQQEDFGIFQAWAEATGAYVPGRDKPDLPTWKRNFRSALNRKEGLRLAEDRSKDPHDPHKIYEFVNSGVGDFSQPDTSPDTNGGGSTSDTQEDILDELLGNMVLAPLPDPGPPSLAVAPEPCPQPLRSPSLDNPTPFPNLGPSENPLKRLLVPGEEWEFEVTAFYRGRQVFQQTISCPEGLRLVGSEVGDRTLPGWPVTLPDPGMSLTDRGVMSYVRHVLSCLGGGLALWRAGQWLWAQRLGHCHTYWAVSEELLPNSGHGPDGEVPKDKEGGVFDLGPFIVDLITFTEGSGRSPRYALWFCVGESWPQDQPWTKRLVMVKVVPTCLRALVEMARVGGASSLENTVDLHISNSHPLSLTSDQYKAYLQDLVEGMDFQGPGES
Method: protein-binding microarray
Molecule type: double-stranded DNA, one strand shown
Medium: in vitro
Tested at: 2540 nM top
Notes: 60-bp whole probe
With: salmon DNA 0.4 mg/ml
Reference: random background probes
Reading: higher = stronger binding
Constant ends, left off below: GCCTAGCAC … GTCTTGATTCGCTTGACGCTGCTG
Oligonucleotide	fitted relative affinity [z-score]
TCACATATTTATCTGCAACTGTGCTAG	0.459
TTAGATATCAGTCTCGATTAGTGCTAG	1.37
GAGATTTCCATTATTGCTTCGTGCTAG	2.73
GGCGGTTTCCTTATCCTGACGTGCTAG	7.82
AGTGTTACCCCTCATCAACCAGTGCTA	0.551
CACTCTCTACATGTGTTTAAGTGCTAG	1.58
TTCCAAATGCCCTCTCCATACGTGCTA	0.805
TTAGGTTTCGGTCGCGGTTAGTGCTAG	4.53

Sample 4
Target: UBE2W UBC core domain (UniProt Q96B02)
Chain of UniProt Q96B02 (whole entry, looked up): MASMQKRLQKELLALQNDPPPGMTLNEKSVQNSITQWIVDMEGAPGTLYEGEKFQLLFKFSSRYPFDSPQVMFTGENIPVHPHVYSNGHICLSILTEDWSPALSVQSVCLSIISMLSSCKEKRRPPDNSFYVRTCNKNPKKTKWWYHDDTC
Method: yeast two-hybrid
Medium: yeast
Notes: mostly zero background
Reference: not given
Reading: higher = stronger interaction
B1: ARIH1 RING domain (UniProt Q9Y4X5); chain NTRSSAQDMPCQICYLNYPNSYFTGLECGHKFCMQCWSEYLTTKIMEEGMGQTISCPAHGCDILVDDNTVM
B2: TRIM32 RING domain (UniProt Q13049); chain NLDALREVLECPICMESFTEEQLRPKLLHCGHTICRQCLEKLLASSINGVRCPFCSKITRITSLTQ
B3: MDM2 RING domain (UniProt Q00987); chain TQDKEESVESSLPLNAIEPCVICQGRPKNGCIVHGKTGHLMACFTCAKKLKKRNKPCPVCRQPIQMIVLTYFP
B4: CBLL1 RING domain (UniProt Q75N03); chain GEKDDTPVHFCDKCGLPIKIYGRMIPCKHVFCYDCAILHEKKGDKMCPGCSDPVQRIEQCT
B5: TRIM68 RING domain (UniProt Q6AZZ1); chain LVEAIVEEVACPICMTFLREPMSIDCGHSFCHSCLSGLWEIPGESQNWGYTCPLCRAPVQPRNLRP
B6: TRIM2 RING domain (UniProt Q9C040); chain VRQIDKQFLICSICLERYKNPKVLPCLHTFCERCLQNYIPAHSLTLSCPVCRQTSILPEKGV
B7: RNF130 RING domain (UniProt Q86XS8); chain DKETDPDFDHCAVCIESYKQNDVVRILPCKHVFHKSCVDPWLSEHCTCPMCKLNILKALGIV
B8: PJA2 RING domain (UniProt O43164); chain DHTAIGQEQCCPICCSEYIKDDIATELPCHHFFHKPCVSIWLQKSGTCPVCRRHFPPAVIEA
B9: RMND5B RING domain (UniProt Q96G75); chain MKCWYHSVFACPILRQQTSDSNPPIKLICGHVISRDALNKLINGGKLKCPYCPMEQNPADGK
Molecule	lacZ reporter activity
PLRRLQEEKLCKICMDRHIAVVFIPCGHLVTCKQCAEAVDRCPMCSAVIDFKQRVF (BIRC8 RING domain (UniProt Q96P09))	0
B1 (ARIH1 RING domain)	0
B2 (TRIM32 RING domain)	0
VPADASPDSKCPICLDRFDNVSYLDRCLHKFCFRCVQEWSKNKAECPLCKQPFDSIFHSV (TOPORS RING domain (UniProt Q9NS56))	16300
B3 (MDM2 RING domain)	0
B4 (CBLL1 RING domain)	0
AAQLLEEKLTCAICLGLYQDPVTLPCGHNFCGACIRDWWDRCGKACPECREPFPDGAELR (TRIM65 RING domain (UniProt Q6PJ69))	0
KITELNPHLMCALCGGYFIDATTIVECLHSFCKTCIVRYLETNKYCPMCDVQVHKTRPLL (PCGF2 RING domain (UniProt P35227))	0
B5 (TRIM68 RING domain)	0
B6 (TRIM2 RING domain)	0
B7 (RNF130 RING domain)	0
B8 (PJA2 RING domain)	5710
EIKDYKARLTCPCCNMRKKDAVLTKCFHVFCFECVKTRYDTRQRKCPKCNAAFGANDFHR (RNF20 RING domain (UniProt Q5VTR2))	0
B9 (RMND5B RING domain)	6670
GSEEEEIPFRCFICRQAFQNPVVTKCRHYFCESCALEHFRATPRCYICDQPTGGIFNPA (RNF113B RING domain (UniProt Q8IZP6))	0

A few entries again (sample 2):
Variant	normalised enrichment score
YKVHRRLVFGADD [K4H]	0.532
YKFKRRLVFGADD [V3F]	0.784
YKVFRRLVFGADD [K4F]	-0.4
